# Experimental data gathered from unrelated publications.
# Numbers after ± are the reported error.
SMILES,assay,system,conditions,scale,endpoint,result
O=C(O)c1ccccc1O,mitochondrial swelling,BALB/cByJ female mouse liver mitochondria,"30 min, added: succinate + rotenone",reference: CaCl2 maximal swelling,EC20,> 400 µM
COc1cccc(-c2ccc(NC(=O)C3=C(C(=O)O)CCC3)c(F)c2)c1,,"male human, plasma","oral, 20 mg, single dose, fasted, healthy volunteers",,Vd/F,10.2 L
CNCc1ccc(-c2[nH]c3cc(F)cc4c3c2CCNC4=O)cc1,,"human cancer patients, plasma","intravenous, 4 mg/m2, day 4, added: temozolomide 100",,AUC(0-24 h),278 ng·h/mL
COc1cccc(CN)c1O,,"C57BL/6N mouse, male, plasma","intraperitoneal, 200 mg/kg",,elimination half-life,36.6 min
O=C(CC1Cc2ccccc2C1)N[C@H](CN1CCCC1)[C@H](O)c1ccc(OC(F)(F)F)cc1,,"CD-1 mouse, plasma",intravenous,,Vd,7.55 L/kg
Cc1c2oc3c(C)ccc(C(=O)N[C@@H]4C(=O)N[C@H](C(C)C)C(=O)N5CCC[C@H]5C(=O)N(C)CC(=O)N(C)[C@@H](C(C)C)C(=O)O[C@@H]4C)c3nc-2c(C(=O)N[C@@H]2C(=O)N[C@H](C(C)C)C(=O)N3CCC[C@H]3C(=O)N(C)CC(=O)N(C)[C@@H](C(C)C)C(=O)O[C@@H]2C)c(N)c1=O,,"mouse, Abcc2 knockout FVB, plasma","intravenous, 0.5 mg/kg",,AUC(0-6h),115 ng·h/mL
CC(C)C[C@H](NC(=O)CNC(=O)c1cc(Cl)ccc1Cl)B(O)O,,"human, plasma","intravenous bolus, 0.5 mg/m^2, day 1",,C0,106 ng/mL
C[N+]1(CC(=O)NC2CCCCCCCCCCC2)CCCCC1.[I-],metabolic stability,"male CD-1 mouse, liver microsomes","1 µM, pH 7.4",,half-life,7.1 min
CNC(=O)c1cc(Oc2ccc(NC(=O)Nc3ccc(Cl)c(C(F)(F)F)c3)cc2)ccn1,LC-MS/MS,"nude mouse subcutaneous tumour model, tumour tissue","intratumoral, 2 mg/kg, PDC 5 miR-3609",,t1/2,44.1 ± 6.24 h
CC(C)[C@H](NC(=O)[C@@H]1CCCN1C(=O)[C@H](CCCNC(=N)N)NC(=O)[C@H](CS)NC(=O)[C@H](Cc1c[nH]c2ccccc12)NC(=O)[C@H](CCCNC(=N)N)NC(=O)[C@@H](Cc1ccccc1)NC(=O)[C@H](Cc1c[nH]cn1)NC(=O)[C@H](CCC(=O)O)NC(=O)[C@H](CS)NC(=O)[C@H](CS)NC(=O)[C@H](CCCCN)NC(=O)[C@@H]1CC(=O)N[C@@H](CCCNC(=N)N)C(=O)N[C@@H](C(C)C)C(=O)N[C@@H](CC(=O)O)C(=O)N[C@H](Cc2ccc(O)cc2)C(=O)N1)C(N)=O [technetium-99m labelled],,"female C57 mouse, B16/F1 melanoma, tumour","intravenous, dose not given, 2 h, added: NDP-MSH 10 µg co-injected",,tissue uptake,1.51 ± 0.6 %ID/g
C[C@H](Oc1ccc(-c2nc(-c3ccc4[nH]cnc4c3)no2)cc1C(F)(F)F)C(F)(F)F.Cl,,"cynomolgus monkey aneurysm model, plasma","0.1 mg/kg once daily, 3 months dosing",,predose plasma concentration,10 ± 2.6 nM
CCOC(=O)CN[C@@H](C(=O)N1CC[C@H]1C(=O)NCc1ccc(/C(N)=N\O)cc1)C1CCCCC1,"cytochrome c release, ELISA",BALB/cByJ female mouse liver mitochondria,30 min,reference: alamethicin maximal release,EC20,> 800 µM
CC(C)(c1ccc(O)cc1)c1ccc(O)cc1,GC-MS,"exposure tank water with snails, reconstituted water","250 ng/L nominal, 20 °C",,half-life,182 min
Cc1cc(=O)n(-c2ccccc2)n1C,"cytochrome c release, ELISA",BALB/cByJ female mouse liver mitochondria,30 min,reference: alamethicin maximal release,EC20,> 400 µM
CC(=O)N[C@@H](Cc1ccccc1)C(=O)N[C@H]1CCCNC(=O)[C@H](CCCNC(=N)N)NC(=O)[C@H](Cc2c[nH]c3ccccc23)NC(=O)[C@@H](CC2CCCCC2)NC(=O)[C@@H]2CCCN2C1=O,,"C57BL/6J mice, plasma","oral, 1 mg/kg",,elimination half-life,16.2 min

# Excerpt of the above:
SMILES,assay,system,conditions,scale,endpoint,result
C[N+]1(CC(=O)NC2CCCCCCCCCCC2)CCCCC1.[I-],metabolic stability,"male CD-1 mouse, liver microsomes","1 µM, pH 7.4",,half-life,7.1 min
CC(C)[C@H](NC(=O)[C@@H]1CCCN1C(=O)[C@H](CCCNC(=N)N)NC(=O)[C@H](CS)NC(=O)[C@H](Cc1c[nH]c2ccccc12)NC(=O)[C@H](CCCNC(=N)N)NC(=O)[C@@H](Cc1ccccc1)NC(=O)[C@H](Cc1c[nH]cn1)NC(=O)[C@H](CCC(=O)O)NC(=O)[C@H](CS)NC(=O)[C@H](CS)NC(=O)[C@H](CCCCN)NC(=O)[C@@H]1CC(=O)N[C@@H](CCCNC(=N)N)C(=O)N[C@@H](C(C)C)C(=O)N[C@@H](CC(=O)O)C(=O)N[C@H](Cc2ccc(O)cc2)C(=O)N1)C(N)=O [technetium-99m labelled],,"female C57 mouse, B16/F1 melanoma, tumour","intravenous, dose not given, 2 h, added: NDP-MSH 10 µg co-injected",,tissue uptake,1.51 ± 0.6 %ID/g
